Measurements from different studies.
Every numbered part comes from another study and shows a few of its results, in no order. Substitutions count along the parent as printed.
Chain of UniProt Q9LQE8 (whole entry, looked up): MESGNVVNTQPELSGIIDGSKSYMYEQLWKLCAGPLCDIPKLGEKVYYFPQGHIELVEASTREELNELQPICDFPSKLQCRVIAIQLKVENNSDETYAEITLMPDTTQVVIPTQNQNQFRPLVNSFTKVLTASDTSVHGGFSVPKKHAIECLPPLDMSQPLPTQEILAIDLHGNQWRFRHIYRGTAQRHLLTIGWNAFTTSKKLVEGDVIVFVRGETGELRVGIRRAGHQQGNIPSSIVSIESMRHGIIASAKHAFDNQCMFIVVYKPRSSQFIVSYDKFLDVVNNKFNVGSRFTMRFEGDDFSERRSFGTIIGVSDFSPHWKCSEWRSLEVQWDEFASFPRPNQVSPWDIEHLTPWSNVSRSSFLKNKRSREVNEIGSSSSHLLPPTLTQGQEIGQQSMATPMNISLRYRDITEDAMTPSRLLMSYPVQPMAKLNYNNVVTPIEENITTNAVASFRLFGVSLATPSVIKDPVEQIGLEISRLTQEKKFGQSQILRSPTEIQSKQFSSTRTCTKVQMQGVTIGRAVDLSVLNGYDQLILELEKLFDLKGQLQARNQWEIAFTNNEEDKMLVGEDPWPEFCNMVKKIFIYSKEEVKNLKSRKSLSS
Chain of UniProt Q9XED8 (whole entry, looked up): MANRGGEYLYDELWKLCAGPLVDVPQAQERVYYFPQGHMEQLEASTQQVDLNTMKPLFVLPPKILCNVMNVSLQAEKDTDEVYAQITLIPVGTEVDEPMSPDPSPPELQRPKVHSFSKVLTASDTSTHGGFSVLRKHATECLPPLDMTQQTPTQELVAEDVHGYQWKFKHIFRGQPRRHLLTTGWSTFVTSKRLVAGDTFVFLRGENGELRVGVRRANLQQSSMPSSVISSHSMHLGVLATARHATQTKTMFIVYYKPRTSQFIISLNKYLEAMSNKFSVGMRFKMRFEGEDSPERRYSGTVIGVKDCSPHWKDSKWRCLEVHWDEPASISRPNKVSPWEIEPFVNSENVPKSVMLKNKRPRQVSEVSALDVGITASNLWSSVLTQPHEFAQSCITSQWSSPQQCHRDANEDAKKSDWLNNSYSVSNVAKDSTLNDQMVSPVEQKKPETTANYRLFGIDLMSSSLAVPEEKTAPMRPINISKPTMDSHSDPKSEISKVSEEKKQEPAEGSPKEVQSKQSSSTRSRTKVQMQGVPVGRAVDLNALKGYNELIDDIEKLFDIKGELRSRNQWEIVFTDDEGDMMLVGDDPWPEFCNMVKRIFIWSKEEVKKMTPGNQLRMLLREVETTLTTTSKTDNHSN
Chain of UniProt P93024 (whole entry, looked up): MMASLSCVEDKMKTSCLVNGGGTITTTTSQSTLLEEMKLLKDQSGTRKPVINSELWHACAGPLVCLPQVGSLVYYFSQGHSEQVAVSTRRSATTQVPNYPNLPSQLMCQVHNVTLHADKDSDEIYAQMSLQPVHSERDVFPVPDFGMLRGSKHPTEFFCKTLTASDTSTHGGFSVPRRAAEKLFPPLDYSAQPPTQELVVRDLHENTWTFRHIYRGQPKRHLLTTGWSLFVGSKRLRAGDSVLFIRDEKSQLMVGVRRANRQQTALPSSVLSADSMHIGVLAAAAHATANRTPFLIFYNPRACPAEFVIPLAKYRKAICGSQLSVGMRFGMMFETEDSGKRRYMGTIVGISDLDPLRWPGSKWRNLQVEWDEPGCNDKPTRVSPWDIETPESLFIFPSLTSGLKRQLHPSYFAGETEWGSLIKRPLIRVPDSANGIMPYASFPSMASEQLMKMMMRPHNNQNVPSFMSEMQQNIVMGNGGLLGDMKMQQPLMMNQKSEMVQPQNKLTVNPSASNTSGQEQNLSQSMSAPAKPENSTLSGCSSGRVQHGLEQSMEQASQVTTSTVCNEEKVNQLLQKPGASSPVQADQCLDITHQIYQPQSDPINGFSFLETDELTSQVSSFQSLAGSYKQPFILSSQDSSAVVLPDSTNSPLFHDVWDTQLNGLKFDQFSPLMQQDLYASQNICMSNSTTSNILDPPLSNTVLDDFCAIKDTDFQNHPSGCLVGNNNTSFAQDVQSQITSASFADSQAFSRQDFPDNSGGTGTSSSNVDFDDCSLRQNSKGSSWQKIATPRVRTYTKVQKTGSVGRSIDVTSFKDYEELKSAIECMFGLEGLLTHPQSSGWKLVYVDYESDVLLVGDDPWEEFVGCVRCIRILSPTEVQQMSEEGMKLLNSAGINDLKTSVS

Series 1
Target: Interferon regulatory factor 7, full length, phosphomimetic (IRF7, Homo sapiens, UniProt Q92985, residues 1-503, S471D/S472D/S475D/S476D/S477D/S483D/S484D/S487D)
Chain of UniProt Q92985 (whole entry, unmodified, looked up): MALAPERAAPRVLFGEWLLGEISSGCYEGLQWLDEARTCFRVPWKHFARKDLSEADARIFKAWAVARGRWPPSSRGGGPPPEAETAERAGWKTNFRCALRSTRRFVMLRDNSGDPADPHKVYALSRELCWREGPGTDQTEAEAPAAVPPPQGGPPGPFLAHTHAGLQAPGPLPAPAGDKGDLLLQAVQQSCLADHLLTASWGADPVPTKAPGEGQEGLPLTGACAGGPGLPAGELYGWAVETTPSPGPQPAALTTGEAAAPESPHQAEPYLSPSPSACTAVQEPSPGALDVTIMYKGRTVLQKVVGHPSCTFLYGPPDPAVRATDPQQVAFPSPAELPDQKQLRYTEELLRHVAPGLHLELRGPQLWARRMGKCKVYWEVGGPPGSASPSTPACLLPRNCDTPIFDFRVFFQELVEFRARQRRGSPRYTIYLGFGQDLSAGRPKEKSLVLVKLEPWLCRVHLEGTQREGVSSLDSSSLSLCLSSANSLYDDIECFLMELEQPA
Technique: protein-binding microarray
Form: double-stranded DNA, one strand shown
Sample: in vitro
Tested at: 2200 nM top
Notes: 60-bp whole probe
Together with: salmon DNA 0.4 mg/ml
Baseline: random background probes
Direction: higher = stronger binding
All sequences stand within: GCCTAGCAC … GTCTTGATTCGCTTGACGCTGCTG
Sequence	fitted relative affinity [z-score]
TTAGGTTTCCTTTCCCTTTCGTGCTAG	5.74
AACGGTATCGACTATCGGGACGTGCTA	-0.0548
GACGGTTCAGGTTTCGGGACGTGCTAG	2.56
GACGGTTTCCTAGTGCTGACGTGCTAG	0.899
TTAGGACTGCTTTTCCGTTAGTGCTAG	1.14
TTAGAACTTAGTCTCGATTAGTGCTAG	-0.08
TTAGAACTGGGGAGTGGATTAGTGCTA	-0.319
GCTGGTCACTCTCTGGGCTGGTGCTAG	-0.149

Series 2
Target: ATP-dependent RNA helicase DDX3X, helicase core (DDX3X, Homo sapiens, UniProt O00571, residues 132-607)
Chain of UniProt O00571 (132-607, looked up): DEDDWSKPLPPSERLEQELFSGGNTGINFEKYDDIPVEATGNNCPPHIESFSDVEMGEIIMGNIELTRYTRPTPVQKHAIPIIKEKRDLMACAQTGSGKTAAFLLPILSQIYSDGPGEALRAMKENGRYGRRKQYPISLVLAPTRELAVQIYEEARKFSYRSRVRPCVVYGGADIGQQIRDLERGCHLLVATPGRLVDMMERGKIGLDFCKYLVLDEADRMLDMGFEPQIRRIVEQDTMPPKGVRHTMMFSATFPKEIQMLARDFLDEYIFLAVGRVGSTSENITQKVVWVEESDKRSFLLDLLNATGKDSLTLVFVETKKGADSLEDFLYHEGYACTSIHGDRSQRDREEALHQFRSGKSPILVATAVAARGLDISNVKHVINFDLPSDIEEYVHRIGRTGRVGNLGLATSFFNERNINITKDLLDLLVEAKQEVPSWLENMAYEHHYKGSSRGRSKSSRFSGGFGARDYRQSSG
Technique: RNA Bind-n-Seq
Form: RNA
Sample: in vitro
Tested at: 90 pmol
Notes: 4-mer, random 30-nt RNA, single round
Together with: 3 µM DMDA-PatA, 2 mM ADP, 2 mM phosphate
Baseline: input library
Direction: higher = stronger binding
Sequence	4-mer enrichment
GAAG	1.17 fold
AUCA	0.954 fold
GUAA	1.1 fold
CCAG	0.972 fold
GCAA	1.01 fold
ACUG	0.789 fold
GUUG	1.08 fold
UAAA	1.11 fold

Series 3
Molecule: B1 (IAA18)
Technique: two-hybrid
Direction: higher = firmer interaction
B1: IAA18 (Arabidopsis thaliana, UniProt O24408); chain MEGYSRNGEISPKLLDLMIPQERRNWFHDEKNSVFKTEEKKLELKLGPPGEEDDDESMIRHMKKEPKDKSILSLAGKYFSPSSTKTTSHKRTAPGPVVGWPPVRSFRKNLASGSSSKLGNDSTTSNGVTLKNQKCDAAAKTTEPKRQGGMFVKINMYGVPIGRKVDLSAHNSYEQLSFTVDKLFRGLLAAQRDFPSSIEDEKPITGLLDGNGEYTLTYEDNEGDKMLVGDVPWQMFVSSVKRLRVIKTSEISSALTYGNGKQEKMRR
partner	conditions	scale	positive tests
ARF14 497-605 (Arabidopsis thaliana, UniProt Q9LQE8)		baseline: out of 4 tests	0
ARF5 788-902 (Arabidopsis thaliana, UniProt P93024)		baseline: out of 4 tests	2
ARF9 519-638 (Arabidopsis thaliana, UniProt Q9XED8)	weak activation fusion	baseline: out of 2 tests	2

Single results of other studies
Starting sequence: viral docking peptide; YKVKRRLVFGADD; partner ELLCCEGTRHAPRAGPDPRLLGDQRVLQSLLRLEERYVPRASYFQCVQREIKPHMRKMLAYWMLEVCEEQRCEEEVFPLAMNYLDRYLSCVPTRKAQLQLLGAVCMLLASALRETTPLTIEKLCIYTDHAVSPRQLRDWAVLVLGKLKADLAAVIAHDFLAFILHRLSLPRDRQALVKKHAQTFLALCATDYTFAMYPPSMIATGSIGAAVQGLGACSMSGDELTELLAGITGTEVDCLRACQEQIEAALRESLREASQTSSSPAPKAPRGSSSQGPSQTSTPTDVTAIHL
Substitution	target	test	system	conditions	scale	measurement	value
YKVKRRLQFGADD [V8Q]	CCND3, cyclin fold, Cln2 fusion (human)	yeast growth competition, sequencing	yeast	weak parent motif	baseline: not given, higher = stronger binding	normalised enrichment score	-0.0656

A few entries again (series 1):
Sequence	fitted relative affinity [z-score]
TTAGAACTTAGTCTCGATTAGTGCTAG	-0.08
